Measurements collected from several papers.
A part holds a random share of what one study measured.

Sample 1
Target: Protein C-ets-1 (ETS1, Homo sapiens, UniProt P14921, residues 1-441, K379A, full length assumed)
Technique: protein-binding microarray
Molecule type: double-stranded DNA, one strand shown
Matrix: in vitro
Concentration: not given
Notes: k-mer, scored over probes, only values ≥0.25
Direction: higher = stronger binding
Endpoint: E-score
Target sequence (chain): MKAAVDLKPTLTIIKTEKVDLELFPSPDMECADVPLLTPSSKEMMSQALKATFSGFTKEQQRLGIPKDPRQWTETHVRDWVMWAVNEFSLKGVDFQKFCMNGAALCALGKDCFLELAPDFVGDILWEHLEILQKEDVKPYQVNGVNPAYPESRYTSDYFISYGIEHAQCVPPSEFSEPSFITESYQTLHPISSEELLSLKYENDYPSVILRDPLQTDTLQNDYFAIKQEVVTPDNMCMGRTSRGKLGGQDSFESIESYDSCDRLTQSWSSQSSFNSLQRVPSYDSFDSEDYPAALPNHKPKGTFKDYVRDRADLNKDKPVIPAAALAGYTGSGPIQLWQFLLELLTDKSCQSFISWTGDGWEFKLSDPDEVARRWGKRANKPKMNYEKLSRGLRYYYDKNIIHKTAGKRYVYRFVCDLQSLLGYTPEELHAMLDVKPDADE
AGTTAACA: 0.258
AAATACAC: 0.262
GACCGGTC: 0.366
ACGAGTAA: 0.276
CCTCCCCG: 0.323
ACGATCGA: 0.285
AGCGGAAA: 0.256
GGTAACAA: 0.303

Sample 2
Target: Histone acetyltransferase KAT6A, winged helix 2, GST fusion (KAT6A, Homo sapiens, UniProt Q92794, residues 85-181)
Technique: protein binding microarray
Molecule type: double-stranded DNA, one strand shown
Matrix: in vitro
Concentration: not given
Notes: 8-mer, flanks averaged, mean of 2 arrays, mostly near background
Baseline: not given
Direction: higher = stronger binding
Endpoint: E-score
Construct (chain): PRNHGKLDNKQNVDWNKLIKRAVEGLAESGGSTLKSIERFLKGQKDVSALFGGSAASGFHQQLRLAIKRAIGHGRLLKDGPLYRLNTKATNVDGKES
GCGCGGCC: 0.256
CCACCCTA: -0.135
TCTCACCA: 0.0679
GCGATCTA: 0.0234
ACTCATTA: -0.164
TACACGAA: 0.134
AGGTCAGG: 0.1
ATACCTGC: 0.0106
TACGCAGA: 0.125
CCTCAGAG: 0.155
CGTATATA: -0.178
GCGCAAAC: 0.144
CAATCCTC: -0.0952
ACCTTAGG: -0.177
AAAACATA: -0.0414
CACTGGCA: 0.113

Sample 3
Target: Prothrombin, mature alpha-thrombin (F2, Homo sapiens, UniProt P00734)
Technique: aptamer microarray, sandwich
Molecule type: DNA with 2'F-ANA
Matrix: in vitro
Concentration: 200 nM
Notes: whole 15-mer aptamer, many near background
With: Cy3 exosite-II aptamer, 400 nM
Direction: higher = stronger binding
Endpoint: mean fluorescence intensity
Sequence: GGTTGGTGTGGTTGG
2'F-ANA at 1 2 3 4 6 10 14 15: 49.6 a.u.
2'F-ANA at 3 4 6 8 9 12: 874 a.u.
2'F-ANA at 1 2 3 5 10 11 12 13 14 15: 45.9 a.u.
2'F-ANA at 2 5 7 8 10 15: 50.4 a.u.
2'F-ANA at 3 4 5 7 14: 61 a.u.
2'F-ANA at 1 4 7 9 11 13 14 15: 96.3 a.u.
2'F-ANA at 2 4 9 13: 216 a.u.
2'F-ANA at 2 3 6 7 8 9 10 12 14: 261 a.u.
2'F-ANA at 2 3 6 7 8 9 13 14 15: 355 a.u.
2'F-ANA at 1 6 9 12 13: 208 a.u.
2'F-ANA at 1 3 5 6 7 9 12 14 15: 54.1 a.u.
2'F-ANA at 1 3 4 5 8 9 12 14 15: 48.3 a.u.
2'F-ANA at 1 4 7 13 14: 52.3 a.u.
2'F-ANA at 2 3 6 7 8 10 11 12: 387 a.u.

Further values, each from its own experiment
PhoQ, residues 284 288 289 292 302 303 TVTVVA  fold induction (PhoP, residues 12 14 15 18 19 IQFRS (Escherichia coli, UniProt P23836); Sort-seq, measured: YFP reporter; E. coli; PhoQ-PhoP variant library, with: 10 µM Mg2+; baseline: high Mg2+ state, higher = stronger signaling): 18.2
